Literature values as cited in several papers.
Lines come from different studies, so protocols differ. Numbers after ± are the reported error.
Chain of UniProt P0DOF5 (whole entry, looked up): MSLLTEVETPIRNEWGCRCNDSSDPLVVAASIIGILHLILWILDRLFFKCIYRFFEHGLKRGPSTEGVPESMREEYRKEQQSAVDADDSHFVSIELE
Chain of UniProt P31390 (whole entry, looked up): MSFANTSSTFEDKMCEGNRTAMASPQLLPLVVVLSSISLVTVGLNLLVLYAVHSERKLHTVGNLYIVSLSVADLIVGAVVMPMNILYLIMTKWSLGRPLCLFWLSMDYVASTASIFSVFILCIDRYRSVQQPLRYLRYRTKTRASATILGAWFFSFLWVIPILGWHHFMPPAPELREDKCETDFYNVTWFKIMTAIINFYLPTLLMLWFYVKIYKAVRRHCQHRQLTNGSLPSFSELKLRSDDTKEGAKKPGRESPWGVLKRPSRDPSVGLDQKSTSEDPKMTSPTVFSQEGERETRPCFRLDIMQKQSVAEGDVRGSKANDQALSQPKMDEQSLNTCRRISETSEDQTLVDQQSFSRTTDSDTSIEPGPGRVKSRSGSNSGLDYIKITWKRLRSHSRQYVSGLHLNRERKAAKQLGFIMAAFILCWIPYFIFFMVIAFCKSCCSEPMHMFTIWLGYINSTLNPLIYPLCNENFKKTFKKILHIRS

Compound | target or system | assay | test system | conditions | quantity | value
C1CC2C3C4C5CCC4C24CNCC54C13 | Matrix protein 2 (Influenza A virus, UniProt P0DOF5) | inhibitor |  | 100 µM | inhibition | 40 ± 1%
CC(C)[C@@H]1NC(=O)[C@H](CCCCN)NC(=O)[C@@H](Cc2c[nH]c3ccccc23)NC(=O)[C@H](Cc2ccc(O)cc2)NC(=O)[C@@H](NC(=O)[C@H](N)Cc2ccc3ccccc3c2)CSSC[C@@H](C(=O)N[C@@H](Cc2ccc3ccccc3c2)C(N)=O)NC1=O | bombesin receptor BB1 |  |  | concentration not given | IC50 | 605 nM
Nc1ncnc2c1ncn2C1OC(CSCCCCNCc2cccc(-c3ccc(Cl)cc3)c2)C(O)C1O (stereo not shown) | PRMT7 | inhibitor |  |  | IC50 | < 2.5 nM
C(#Cc1cncc(OC[C@@H]2CCN2)c1)c1ccccc1 | nicotinic acetylcholine receptor α4β2 |  |  |  | IC50 | 0.049 nM
N#CC1CC2CC2N1C(=O)C1CC(NS(=O)(=O)c2ccc(Cl)cc2)CN1 (stereo not shown) | DPP-IV | enzyme activity, inhibitor |  |  | IC50 | 6.7 nM
CC[C@H](C)[C@H](NC(=O)[C@H](Cc1c[nH]c2ccccc12)NC(=O)[C@H](CCCNC(=N)N)NC(=O)[C@@H](N)CCCNC(=N)N)C(=O)N[C@@H](CCC(N)=O)C(=O)N[C@@H](CC(C)C)C(=O)NCC(=O)N[C@@H](CC(C)C)C(=O)N[C@@H](CCC(N)=O)C(=O)N[C@@H](CCCCN)C(=O)O | Mamu-B*03 MHC class I | peptide binding, competitor, competitive binding |  |  | IC50 | 12 nM
CCCCCc1cc(O)c2c(c1)OC(C)(C)C1CCC(C)=CC21 (single isomer, unassigned; (-)) |  |  | human, plasma | inhalation, 54 mg | Cmax | 254 nM
CCOC(=O)C1C(OC(c2ccc(Cl)cc2)c2ccc(Cl)cc2)CC2CCC1N2C (single isomer, unassigned) | Hrh1 (Rattus norvegicus, UniProt P31390) |  |  |  | Ki | 37600 ± 2990 nM
CC(C)[C@@H]1NC(=O)[C@H](CCCCN)NC(=O)[C@@H](Cc2c[nH]c3ccccc23)NC(=O)[C@H](Cc2ccc(O)cc2)NC(=O)[C@@H](NC(=O)[C@H](N)Cc2ccc3ccccc3c2)CSSC[C@@H](C(=O)N[C@@H](Cc2ccc3ccccc3c2)C(N)=O)NC1=O | mouse GRP receptor | binding |  | literature species comparison | IC50 | > 10000 nM
CC1=C(C)C(=O)OC(C(C)(O)C2(O)CCC3(O)C4CC5OC56C(O)C=CC(=O)C6(C)C4CCC32C)C1 (stereo not shown) | MDA-MB-231 | cell growth |  |  | IC50 | 360 nM
CCn1c(CC(=O)N2CCN(c3ccccc3)CC2)nc2sc3c(c2c1=O)CCCC3 | Aβ |  |  |  | IC50 | 2080 nM
CO[C@H]1CC=C2CCN3CCC4=C(CC(=O)CC4)[C@]23C1 | α3β4 nicotinic acetylcholine receptor | inhibitor |  |  | IC50 | 23000 nM
CC[C@H](C)C(=O)N1CCC(NC(=O)Nc2ccc(OC(F)(F)F)c(F)c2)CC1 | BCRP | inhibitor |  |  | IC50 | 1400 nM
CC(C)C[C@H](NC(=O)[C@H](C)NC(=O)[C@H](CCC(=O)O)NC(=O)[C@H](Cc1c[nH]c2ccccc12)NC(=O)CNC(=O)[C@H](CCCNC(=N)N)NC(=O)[C@H](CCCNC(=N)N)NC(=O)CN)C(=O)N[C@@H](CCCCN)C(=O)N[C@@H](Cc1ccc(O)cc1)C(=O)O | Mamu-B*08 MHC class I | peptide binding, competitor, competitive binding |  |  | IC50 | 1880 nM
CN[C@H](CC(C)C)C(=O)N[C@H]1C(=O)N[C@@H](CC(N)=O)C(=O)N[C@H]2C(=O)N[C@H]3C(=O)N[C@H](C(=O)N[C@H](C(=O)O)c4cc(O)cc(O)c4-c4cc3ccc4O)[C@H](O)c3ccc(c(Cl)c3)Oc3cc2cc(c3O[C@@H]2O[C@H](CO)[C@@H](O)[C@H](O)[C@H]2O[C@H]2C[C@](C)(NCc3ccc(-c4ccc(Cl)cc4)cc3)[C@H](O)[C@H](C)O2)Oc2ccc(cc2Cl)[C@H]1O |  |  | mouse, plasma | intravenous, 75 mg/kg (MTD) | half-life | 6.6 h
C=C1C(=O)N[C@@H](C)C(=O)N(C)[C@@H](C)C(=O)N[C@@H]([C@H](OC(=O)[C@@H](NC(=O)CC)[C@H](O)C(C)C)C(C)C)C(=O)N(C)[C@@H]([C@@H](C)OC)C(=O)O[C@H](C(C)C)[C@H](NC(C)=O)C(=O)O[C@H](Cc2ccccc2)C(=O)N1C | Gαq/11 | inhibitor |  |  | IC50 | 32 nM
O=C(OCC[18F])C1C2CCC(CC1c1ccc(/C=C\I)cc1)N2 (stereo not shown) | SERT | HRRT PET | awake rhesus monkey, midbrain |  | time to peak uptake | > 75 min
O=C[C@H](C[C@@H]1CCNC1=O)NC(=O)[C@H](Cc1ccccc1)NC(=O)/C=C/c1cccc(Br)c1 | enterovirus 71 3C protease | enzyme activity, inhibitor |  |  | IC50 | < 500 nM
CSCC[C@H](N)C(=O)N1CCC[C@H]1C(=O)Nc1ccc([N+](=O)[O-])cc1 | dengue virus 2 NS2B-NS3 protease | inhibitor |  |  | IC50 | 1200 ± 400 nM
CC[C@H](C)[C@H](NC(=O)[C@@H](NC(=O)[C@@H](NC(=O)[C@H](CCCNC(=N)N)NC(=O)[C@@H](N)CCCCN)C(C)C)C(C)C)C(=O)N[C@@H](CC(N)=O)C(=O)N[C@@H](CCCCN)C(=O)N[C@@H](CC(=O)O)C(=O)N[C@H](C(=O)O)[C@@H](C)O | Mamu-B*03 MHC class I | peptide binding, competitor, competitive binding |  |  | IC50 | 1060 nM
CC1=C(C)C(=O)OC(C(C)(O)C2(O)CCC3(O)C4CC5OC56CC=CC(=O)C6(C)C4CCC32C)C1 (stereo not shown) | SK-BR-3 | cell growth |  |  | IC50 | 710 nM
CC(C)(C)OC(=O)N1CCN(C(=O)CCCc2c[nH]c3ccccc23)CC1 | 5-lipoxygenase | inhibitor, cell-based |  |  | IC50 | < 1000 nM
CCN(CC)CCNC(=O)c1ccc(CN2CCc3ccccc3C2)cc1 | butyrylcholinesterase | enzyme activity, inhibitor |  |  | IC50 | 17900 nM
COc1cc(/C=C/C(=O)NCC(C)(C)CNC(=O)/C=C/c2ccc(OC(C)=O)c(OC)c2)ccc1OC(C)=O | AChE |  |  |  | IC50 | 350 nM
Nc1nc(=O)n(C2CCCS2)cc1C#CCNS(=O)(=O)C1CC1 (stereo not shown) | IspE Escherichia coli | enzyme activity, inhibitor |  |  | IC50 | 4730 ± 1190 nM

For quick reference, copied from above:
Compound | target or system | assay | test system | conditions | quantity | value
CCCCCc1cc(O)c2c(c1)OC(C)(C)C1CCC(C)=CC21 (single isomer, unassigned; (-)) |  |  | human, plasma | inhalation, 54 mg | Cmax | 254 nM
CCOC(=O)C1C(OC(c2ccc(Cl)cc2)c2ccc(Cl)cc2)CC2CCC1N2C (single isomer, unassigned) | Hrh1 (Rattus norvegicus, UniProt P31390) |  |  |  | Ki | 37600 ± 2990 nM
